Assay results pooled from the literature.
Compare with care: the assays were run in different laboratories. Several values in a cell are separate wells, animals, samples, runs or records. Numbers after ± are the reported error.
CSTF2: CSTF2 1-107 (Homo sapiens, UniProt P33240)
Sequence of UniProt P33240 (whole entry, unmodified, looked up): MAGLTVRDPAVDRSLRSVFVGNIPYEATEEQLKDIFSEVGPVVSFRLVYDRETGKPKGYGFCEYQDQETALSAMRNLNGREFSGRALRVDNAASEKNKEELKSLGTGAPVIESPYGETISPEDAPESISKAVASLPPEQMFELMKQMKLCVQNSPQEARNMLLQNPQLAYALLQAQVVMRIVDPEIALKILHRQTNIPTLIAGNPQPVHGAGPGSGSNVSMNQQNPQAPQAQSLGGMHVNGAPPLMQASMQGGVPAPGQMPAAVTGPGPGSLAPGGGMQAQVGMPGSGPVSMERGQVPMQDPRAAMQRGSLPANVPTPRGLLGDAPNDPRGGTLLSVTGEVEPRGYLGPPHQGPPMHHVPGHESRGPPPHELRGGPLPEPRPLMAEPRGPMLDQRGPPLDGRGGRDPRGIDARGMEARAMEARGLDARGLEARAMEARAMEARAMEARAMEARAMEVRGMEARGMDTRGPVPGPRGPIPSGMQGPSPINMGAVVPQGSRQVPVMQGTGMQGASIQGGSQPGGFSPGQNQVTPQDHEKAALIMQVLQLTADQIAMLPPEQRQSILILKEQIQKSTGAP
Sequence of UniProt B0V3F8 (whole entry, looked up): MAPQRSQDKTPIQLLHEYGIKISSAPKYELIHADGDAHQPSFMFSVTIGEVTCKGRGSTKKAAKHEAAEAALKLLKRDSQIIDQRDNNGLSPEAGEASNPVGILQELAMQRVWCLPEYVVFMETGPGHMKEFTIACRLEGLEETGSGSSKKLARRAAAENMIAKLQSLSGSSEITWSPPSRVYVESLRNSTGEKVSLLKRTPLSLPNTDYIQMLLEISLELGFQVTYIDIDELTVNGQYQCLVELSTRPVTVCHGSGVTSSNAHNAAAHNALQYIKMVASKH
Sequence of UniProt P0DXY9 (whole entry, looked up): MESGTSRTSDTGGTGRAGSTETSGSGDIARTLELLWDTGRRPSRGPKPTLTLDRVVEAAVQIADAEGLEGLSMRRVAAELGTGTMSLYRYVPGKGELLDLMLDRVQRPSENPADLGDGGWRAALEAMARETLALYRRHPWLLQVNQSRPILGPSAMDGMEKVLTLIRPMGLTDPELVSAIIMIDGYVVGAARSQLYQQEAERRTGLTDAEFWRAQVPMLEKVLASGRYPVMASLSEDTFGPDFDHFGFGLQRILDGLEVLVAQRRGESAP
Sequence of UniProt O51941 (whole entry, looked up): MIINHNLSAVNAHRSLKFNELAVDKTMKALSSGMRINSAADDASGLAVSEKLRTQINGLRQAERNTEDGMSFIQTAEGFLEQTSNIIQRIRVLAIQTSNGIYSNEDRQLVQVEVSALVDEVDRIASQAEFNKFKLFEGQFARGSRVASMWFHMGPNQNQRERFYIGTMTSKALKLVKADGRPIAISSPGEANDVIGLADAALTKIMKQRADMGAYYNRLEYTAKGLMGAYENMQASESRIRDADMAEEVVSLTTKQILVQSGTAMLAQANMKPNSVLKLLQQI

Molecule	tested on	assay	system	conditions	how to read	quantity	result
aspterric acid	–	root length	Arabidopsis thaliana Col-0 seeds	50 µg/mL, seed germination	baseline: water control	inhibition	99.2%
insulin human	–	measured: AKT3 mRNA	EcoHIV-infected mouse, brain	i.p., dose not given	baseline: PBS	fold change	0.736
RNA 1 CACCCGUGCAAAAAUGCAGGGGUCUAAAACUGAGCGGAUAACCUCUCUAUGG / RNA 2 CGUACCAUAGAGAGGUGAUCCGCUCACCGA (crRNA/target DNA; mismatch at position 10)	Cas13d full length assumed (Eubacterium siraeum, UniProt B0MS50)	cryo-EM	–	intermediate state	–	binding	binds
HVLVMSATRR	–	–	peptide, C57BL/6J mice, male, serum	subcutaneous osmotic pump, 3 mg/kg/day peptide basis, 8 weeks	–	chloride	112 mmol/L and 114 mmol/L and 113 mmol/L
AUGUUU (ssRNA)	CSTF2	NMR titration	RNA	27 °C	–	binding	binds
ACGTTTACAAACACCTATGAATGTA (dsDNA)	nalD full length assumed (Pseudomonas aeruginosa, UniProt Q9HY46)	EMSA	double-stranded DNA, one strand shown	–	–	binding	binds
TTTATAAAAAACCAATATATGTCTTGACACATGTAAAAAACGTTGTATAATG (dsDNA)	niaR 1-174 K97R (Streptococcus mutans, UniProt Q8DVX8)	EMSA	double-stranded DNA, one strand shown	–	–	binding	binds
hexaarginine	PorA peptide pore	peptide binding, planar bilayer single-channel recording	–	0.5 µM, pH 7.4, -15 mV, cis side, 150 mM KCl	–	kon	2.6e+07 ± 3e+06 M⁻¹ s⁻¹
GTCTTTAATAATTAAACTAGTGTCTTGACAGATGTAAACAACAGGTATAAAC (dsDNA)	niaR 1-174 (Streptococcus mutans, UniProt Q8DVX8)	EMSA	double-stranded DNA, one strand shown	–	–	binding	binds
GGGAGUCGACCGACCAGAAUGAUUGUUGUGUGUAUUGGGUGGCGGUAUGUGCGUCUACAUCUAGACUCAU (XNA; 2'-fluoro pyrimidines)	flaB 1-283 (Leptospira interrogans, UniProt O51941)	pull-down	modified nucleic acid	–	–	binding	binds
RNA 1 AACAAAACAAAAUAGCACCGUAAAGC / RNA 2 GCUUUACGGUGCUA (dsRNA; 14 bp duplex, 5' 12 nt overhang)	DEAD-box ATP-dependent RNA helicase RhpA 1-379 (Pseudomonas aeruginosa, UniProt Q9HX66)	fluorescence polarization	double-stranded RNA	with: AMP-PNP 1 mM	–	Kd	144 nM
ATTAGTTTGTATGCAAACCATT (dsDNA)	MarR-family transcriptional regulator 1-147 Y26A (Clostridioides difficile, UniProt A0A9R0BIW1)	EMSA	double-stranded DNA, one strand shown	–	–	binding	binds
nonaarginine	PorA peptide pore	peptide binding, planar bilayer single-channel recording	–	0.5 µM, pH 7.4, -30 mV, cis side, 150 mM KCl	–	kon	4e+07 ± 4e+06 M⁻¹ s⁻¹
RNA 1 CACCCGUGCAAAAAUGCAGGGGUCUAAAACUGAGCGGAUAACCUCUCUAUGG / RNA 2 GGGUUCGUACCAUAGAGAGGUUAUCCGAUCACCGAGAUCG (crRNA/target DNA; mismatch at position 4)	Cas13d full length assumed R295A/H300A/R849A/H854A (Eubacterium siraeum, UniProt B0MS50)	EMSA	–	with: EDTA 20 mM	–	binding	binds
AUUUUAUGUUUCAGGU (ssRNA (simian virus 40); phosphorothioate at nucleotide 9)	CSTF2	NMR PRE	RNA	–	–	binding	binds
RNA 1 GCAUGGCUUAGGUCAACAUAUCUAUGAAACUUAUGGGGAUACUUGGUCAGGAGUGGAAGCAUAAUAAGAAUUCUGCAACAACUGC / RNA 2 GCAGUUGUUGCAGAAUUCUUAUUAUGCUUCCACUCCUGACCAAGUAUCCCCAUAAGUUUCAUAGAUAUGUUGACCUAAGCCAUGC (dsRNA (HIV-1); blunt)	prkra full length assumed (Danio rerio, UniProt B0V3F8)	EMSA	double-stranded RNA	–	–	binding	binds
Polymyxin B	–	–	mouse	intraperitoneal, 30 mg/kg single dose, day 6	–	survival	0%
GACTACGTACTGTTACGGCTCCATCGGTACCGCAATCAGGCCAGATCTGC (dsDNA)	uvrA full length assumed (Acetivibrio thermocellus, UniProt A3DC70)	cryo-EM	double-stranded DNA, one strand shown	with: AMPPNP	–	binding	binds
AUUUUAUGUUUCAGGU (ssRNA)	CSTF2 1-107 R46E (Homo sapiens, UniProt P33240)	ITC	RNA	27 °C	–	binding	no binding
CTGTACGTCACTATCGAAGCAATACAGGTAGACGCGGACATCAAGCCCGCCGTGAAGGTGCAGCTTCTCTACAGAGTGCG (dsDNA; blunt; target/nontarget strands)	Csy1/Csy2/Csy3/Csy4 1-434; 1-327; 1-342; 1-187 (Pseudomonas aeruginosa)	EMSA	double-stranded DNA, one strand shown	–	–	binding	binds
GCCGCCCCTCCCGTGTGCTCGCGCCCTGCCTCCGGCACCATTTCTTCGAGGACCTAAGCTGGCTCC (dsDNA)	drrR1 full length assumed (Streptomyces coeruleorubidus, UniProt P0DXY9)	competition	double-stranded DNA, one strand shown	excess unlabelled DNA	–	binding	no binding

For quick reference, copied from above:
Molecule	tested on	assay	system	conditions	how to read	quantity	result
RNA 1 CACCCGUGCAAAAAUGCAGGGGUCUAAAACUGAGCGGAUAACCUCUCUAUGG / RNA 2 GGGUUCGUACCAUAGAGAGGUUAUCCGAUCACCGAGAUCG (crRNA/target DNA; mismatch at position 4)	Cas13d full length assumed R295A/H300A/R849A/H854A (Eubacterium siraeum, UniProt B0MS50)	EMSA	–	with: EDTA 20 mM	–	binding	binds
AUUUUAUGUUUCAGGU (ssRNA (simian virus 40); phosphorothioate at nucleotide 9)	CSTF2	NMR PRE	RNA	–	–	binding	binds
